Values quoted from earlier work as cited in several papers.
Protocols differ between the studies behind these lines. “And” joins repeats or separate records; there may be more than shown. ± marks the error that the study gave. Values after ≈ are worked out from the molar mass of the structure shown.

C=C[C@@H]1C[C@]1(NC(=O)[C@@H]1C[C@@H]2CN1C(=O)[C@H](C(C)(C)C)NC(=O)O[C@@H]1C[C@H]1CCCCCc1nc3ccc(OC)cc3nc1O2)C(=O)NS(=O)(=O)C1CC1 — unchanged faecal excretion (bile duct-cannulated rat; oral, dose not given): 73%
CN(C)CCCN1c2ccccc2CCc2ccc(Cl)cc21 — fraction unbound (human): 0.004
c1ccc2c(c1)ccc1c3ccccc3ccc21 — Km (substrate; human liver microsomes): 0.05 µM
N#CCNC(=O)c1ccc(-c2ccnc(Nc3ccc(N4CCOCC4=O)cc3)n2)cc1 — AUC(0-inf) decrease (severe hepatic impairment; dose not given; relative to: matched healthy participants): 48%
CC(=O)C[C@@H](c1ccccc1)c1c(O)c2ccccc2oc1=O — Cmax, mean (human, fasted; oral, 15 mg, single dose, with: racemic warfarin 30 mg): 1700 ng/mL
c1cc2ccc3cccc4ccc(c1)c2c34 — Km (substrate; human liver microsomes): 0.144 µM
CC(C)OC(=O)[C@H](C)N[P@](=O)(OC[C@H]1O[C@@H](n2ccc(=O)[nH]c2=O)[C@](C)(F)[C@@H]1O)Oc1ccccc1 — plasma stability: > 24 h
CNCCCN1c2ccccc2CCc2ccccc21 — fraction unbound (mouse): 0.011
O=C(O)C(F)(F)C(F)(F)C(F)(F)C(F)(F)C(F)(F)C(F)(F)C(F)(F)F — pKa (phase separation; literature value): 1.01
CC(F)(F)c1cc(F)ccc1-c1sc2cc(O)ccc2c1Oc1ccc(/C=C/C(=O)O)cc1 — highest non-severely toxic dose (dog; 4 weeks): 100 mg/kg/day
COc1cc2c(c(OC)c1OC)-c1ccc(OC)c(=O)cc1[C@@H](NC(C)=O)CC2 — free Cmax (plasma): 3.6 nM
CN1Cc2c(N)cccc2C(c2ccccc2)C1 (centres unmarked) — fraction unbound (dog): 0.072
CC(C)(C)NC(=O)[C@@H](N)Cc1ccc(OP2(=O)CO[C@@H](Cn3ccc(N)nc3=O)CO2)cc1 (some centres unmarked) — half-life (PBS; pH 6.5, Rp isomer): 28.9 h
ClC1=C(Cl)C2(Cl)C3C4CC(C5OC45)C3C1(Cl)C2(Cl)Cl (centres unmarked) — water solubility (25 °C): 0.2 µg/mL (≈ 0.525 µM)
O=S(=O)(O)C(F)(F)C(F)(F)C(F)(F)C(F)(F)F — plasma fraction unbound (plasma): 0.0128
CCCCCOc1ccc(-c2ccc(-c3ccc(C(=O)N[C@H]4C[C@@H](O)[C@@H](O)NC(=O)[C@@H]5[C@@H](O)[C@@H](C)CN5C(=O)[C@H]([C@@H](C)O)NC(=O)[C@H]([C@H](O)[C@@H](O)c5ccc(O)cc5)NC(=O)[C@@H]5C[C@@H](O)CN5C(=O)[C@H]([C@@H](C)O)NC4=O)cc3)cc2)cc1 — AUC(0-inf) (human renal impairment mild; 50 mg single dose): 52500 ± 15200 ng·h/mL
CCN(CC)CCCC(C)Nc1ccnc2cc(Cl)ccc12 (centres unmarked) — blood-to-plasma ratio (human): 5
Cc1cccc(C)c1N(Cn1cccn1)C(=O)CCl — log Kow: 2.13
Nc1ccc2c(c1)CN1C(=O)c3ccccc3C1=N2 — maximum tolerated dose ratio (rat and dog; oral; relative to: rat over dog): 60
COC(=O)[C@@H](N)Cc1ccc(OP2(=O)CO[C@@H](Cn3ccc(N)nc3=O)CO2)cc1 (some centres unmarked) — half-life (PBS; pH 6.5, Sp isomer): 0.933 h
CN(C)CCCN1c2ccccc2Sc2ccc(Cl)cc21 — fraction unbound (dog): 0.003
C=CC=C — Km (substrate; human liver microsomes): 200 µM and 390 µM
CCN(CCO)CCCC(C)Nc1ccnc2cc(Cl)ccc12 (centres unmarked) — lung concentration (rhesus macaque; intraperitoneal, 50 mg/kg): 30 µmol/kg
O=C(CCCN1CCC(O)(c2ccc(Cl)cc2)CC1)c1ccc(F)cc1 — fraction unbound (mouse): 0.003
COc1ccc2c(c1)NC(=O)CN2c1nc(Cl)nc2cccnc12 — maximum tolerated dose (body weight loss and death; mouse): > 1 mg/kg
C[C@H](NP(=O)(O)OC[C@H]1O[C@@](C#N)(c2ccc3c(N)ncnn23)[C@H](O)[C@@H]1O)C(=O)O — Tmax (human; intravenous infusion, 0.5 h infusion): 0.75 h
COc1cc2c(c(OC)c1OC)-c1ccc(OC)c(=O)cc1[C@@H](NC(C)=O)CC2 — half-life (human): 4.32 h
COc1ccc(C(CN(C)C)C2(O)CCCCC2)cc1 (centres unmarked) — fraction unbound (mouse): 0.19
COc1cc2c(Nc3ccc(Cl)c(Cl)c3F)ncnc2cc1OC[C@@H]1C[C@@H]2CN(C)C[C@@H]2C1 — MTD (mouse; oral, dosed 1-5 days per week): 70 mg/kg
Nc1ccccc1 — HSA binding, literature value (human serum albumin; concentration not given): 14.1%
CN1CCC[C@H]1c1cccnc1 — elimination rate constant: 0.706 h⁻¹
CC(NCCc1ccc(O)cc1)C(O)c1ccc(O)cc1 (centres unmarked) — Cmax (human, plasma; concentration not given, median of reported values): 40 nM
CCC(CC)O[C@@H]1C=C(C(=O)O)C[C@H](N)[C@H]1NC(C)=O — volume of distribution (rat; dose not given): 1.3 L/kg
C[C@]12CC[C@H](n3ccnc3)CC1=CC[C@@H]1[C@@H]2CC[C@]2(C)C(n3cnc4ccccc43)=CC[C@@H]12 — Cmax (male CD-1 mice, plasma; oral, dose not given): 706 ng/mL
CCCCCOc1ccc(-c2cc(-c3ccc(C(=O)N[C@H]4C[C@@H](O)[C@@H](O)NC(=O)[C@@H]5[C@@H](O)[C@@H](C)CN5C(=O)[C@H]([C@H](O)CC(N)=O)NC(=O)[C@H]([C@H](O)[C@@H](O)c5ccc(O)c(OS(=O)(=O)O)c5)NC(=O)[C@@H]5C[C@@H](O)CN5C(=O)[C@H]([C@@H](C)O)NC4=O)cc3)no2)cc1 — fraction excreted in urine (human; with: radiolabelled compound): 12%
Cc1cccc(C)c1OCC(=O)N[C@@H](Cc1ccccc1)[C@@H](O)C[C@H](Cc1ccccc1)NC(=O)[C@H](C(C)C)N1CCCNC1=O — blood-to-plasma ratio (human): 0.44
O=C(O)C(F)(F)C(F)(F)C(F)(F)F — plasma fraction unbound (plasma): 0.093
Fc1ccc([C@@H]2CCNC[C@H]2COc2ccc3c(c2)OCO3)cc1 — fraction unbound (human): 0.005
CCCCCCCCCCCCCCCCOCCCOP(=O)(O)CO[C@H](C)Cn1cnc2c(N)ncnc21.N — liver extraction fraction (rats; oral): 86%
NC1CCCCC1N.O=C([O-])C(=O)[O-].[Pt+2] (centres unmarked) — C0 (item: total platinum; mouse, plasma; intraperitoneal, 5 mg Pt/kg): 6.15 µg Pt/mL
Cc1cccc2c1ccc1cc(C(C)C)ccc12 — amount in tissue (zebrafish embryos, whole embryo; 271.8 ng/well, 48 hpf, single exposure): 7.11 ng/well and 6.11 ng/well and 5.09 ng/well
CN[C@H](CC(C)C)C(=O)N[C@H]1C(=O)N[C@@H](CC(N)=O)C(=O)N[C@H]2C(=O)N[C@H]3C(=O)N[C@H](C(=O)N[C@H](C(=O)O)c4cc(O)cc(O)c4-c4cc3ccc4O)[C@H](O)c3ccc(c(Cl)c3)Oc3cc2cc(c3O[C@@H]2O[C@H](CO)[C@@H](O)[C@H](O)[C@H]2O[C@H]2C[C@](C)(N)[C@H](O)[C@H](C)O2)Oc2ccc(cc2Cl)[C@H]1O — fecal concentration (human; dose not given): 175 to 6300 µg/mL
Cc1ccc2ccccc2c1 — amount in tissue (zebrafish embryos, whole embryo; 165 ng/well, 48 hpf, single exposure): 0.369 ng/well and 0.37 ng/well and 0.407 ng/well
O=S(=O)(O)C(F)(F)C(F)(F)C(F)(F)C(F)(F)C(F)(F)C(F)(F)C(F)(F)C(F)(F)F — IC50 (CYP2D6; inhibitor; Tox21 screening): 33.6 ± 1.93 µM
c1ccc2c(c1)cc1ccc3cccc4c5ccccc5c2c1c34 — amount in tissue (zebrafish embryos, whole embryo; 163 ng/well, 48 hpf, single exposure): 0.216 ng/well and 0.284 ng/well and 0.219 ng/well
CC(=O)CC(c1ccccc1)c1c(O)c2ccccc2oc1=O (centres unmarked) — fraction unbound (mouse): 0.094
CCOC(=O)C1=C(CN2CCOCC2)NC(c2nccs2)=NC1c1ccc(F)cc1Br (centres unmarked) — aqueous solubility (pH 7): < 1.19 µg/mL
